# Results of several laboratories.
# Protocols differ between the studies behind these lines. Numbers after ± are the reported error.
# sdiA: Regulatory protein SdiA (sdiA, Escherichia coli, UniProt P07026)
# Sequence of UniProt P07026 (whole entry, looked up): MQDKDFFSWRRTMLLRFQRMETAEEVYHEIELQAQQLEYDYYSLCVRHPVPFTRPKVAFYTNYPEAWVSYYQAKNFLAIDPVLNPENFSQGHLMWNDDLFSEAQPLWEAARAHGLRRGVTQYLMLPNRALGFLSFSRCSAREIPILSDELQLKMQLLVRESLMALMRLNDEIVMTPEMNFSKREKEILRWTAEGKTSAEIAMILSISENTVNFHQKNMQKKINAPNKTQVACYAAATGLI
# Histidine kinase AgrC: Histidine kinase AgrC (Listeria monocytogenes, UniProt A8E0G3)
# Sequence of UniProt Q8BZ39 (whole entry, looked up): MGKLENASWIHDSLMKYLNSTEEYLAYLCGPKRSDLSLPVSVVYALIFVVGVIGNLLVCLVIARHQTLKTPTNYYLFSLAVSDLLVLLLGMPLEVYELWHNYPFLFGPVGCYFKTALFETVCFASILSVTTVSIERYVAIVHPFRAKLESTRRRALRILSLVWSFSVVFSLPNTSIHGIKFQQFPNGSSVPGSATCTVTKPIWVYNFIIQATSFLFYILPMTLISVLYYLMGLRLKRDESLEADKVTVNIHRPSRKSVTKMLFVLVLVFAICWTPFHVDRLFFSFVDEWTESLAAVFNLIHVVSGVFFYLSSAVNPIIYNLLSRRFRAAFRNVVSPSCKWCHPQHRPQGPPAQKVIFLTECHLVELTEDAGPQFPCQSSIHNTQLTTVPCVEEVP
# Sequence of UniProt P41143 (whole entry, unmodified, looked up): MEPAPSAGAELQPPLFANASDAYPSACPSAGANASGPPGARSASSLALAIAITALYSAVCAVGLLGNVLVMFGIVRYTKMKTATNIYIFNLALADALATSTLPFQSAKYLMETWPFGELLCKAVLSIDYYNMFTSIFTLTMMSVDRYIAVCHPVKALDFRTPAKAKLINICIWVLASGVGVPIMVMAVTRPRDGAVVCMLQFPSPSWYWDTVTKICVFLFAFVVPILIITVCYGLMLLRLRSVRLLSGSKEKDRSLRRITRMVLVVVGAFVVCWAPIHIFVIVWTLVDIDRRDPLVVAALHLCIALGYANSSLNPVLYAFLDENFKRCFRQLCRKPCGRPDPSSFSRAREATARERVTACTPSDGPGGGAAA
# Sequence of UniProt P10686 (21-1215, looked up): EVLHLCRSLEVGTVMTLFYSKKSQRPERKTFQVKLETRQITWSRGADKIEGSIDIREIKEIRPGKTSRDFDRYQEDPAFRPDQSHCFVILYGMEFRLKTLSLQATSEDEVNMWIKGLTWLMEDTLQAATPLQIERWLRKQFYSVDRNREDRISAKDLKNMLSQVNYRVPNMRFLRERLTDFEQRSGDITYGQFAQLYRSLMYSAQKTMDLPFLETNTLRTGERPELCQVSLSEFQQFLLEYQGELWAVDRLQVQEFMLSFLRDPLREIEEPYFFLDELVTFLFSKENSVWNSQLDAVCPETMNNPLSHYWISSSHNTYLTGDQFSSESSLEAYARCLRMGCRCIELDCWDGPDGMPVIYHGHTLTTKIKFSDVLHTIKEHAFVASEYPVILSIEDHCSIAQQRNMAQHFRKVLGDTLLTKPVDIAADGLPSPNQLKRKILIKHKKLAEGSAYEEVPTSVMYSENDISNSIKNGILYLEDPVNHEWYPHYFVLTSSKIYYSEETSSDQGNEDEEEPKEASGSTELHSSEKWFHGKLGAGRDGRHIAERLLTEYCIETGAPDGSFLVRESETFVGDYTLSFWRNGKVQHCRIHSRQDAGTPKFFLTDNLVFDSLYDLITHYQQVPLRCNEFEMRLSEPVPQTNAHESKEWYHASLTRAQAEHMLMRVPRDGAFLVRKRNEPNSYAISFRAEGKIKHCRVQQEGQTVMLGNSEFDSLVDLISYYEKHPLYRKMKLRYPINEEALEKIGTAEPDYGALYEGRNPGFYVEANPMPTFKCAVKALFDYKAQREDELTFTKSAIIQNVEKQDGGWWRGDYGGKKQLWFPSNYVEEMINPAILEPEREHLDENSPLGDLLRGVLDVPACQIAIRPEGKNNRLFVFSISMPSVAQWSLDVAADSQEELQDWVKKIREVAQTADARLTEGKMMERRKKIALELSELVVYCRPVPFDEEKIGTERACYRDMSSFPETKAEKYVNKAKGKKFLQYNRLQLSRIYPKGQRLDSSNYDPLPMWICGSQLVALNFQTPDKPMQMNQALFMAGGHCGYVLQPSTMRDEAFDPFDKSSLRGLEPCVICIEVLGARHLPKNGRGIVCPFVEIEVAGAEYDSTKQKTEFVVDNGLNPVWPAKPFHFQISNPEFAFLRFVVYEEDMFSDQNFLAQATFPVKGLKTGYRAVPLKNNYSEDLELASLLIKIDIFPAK
# Sequence of UniProt P30559 (whole entry, looked up): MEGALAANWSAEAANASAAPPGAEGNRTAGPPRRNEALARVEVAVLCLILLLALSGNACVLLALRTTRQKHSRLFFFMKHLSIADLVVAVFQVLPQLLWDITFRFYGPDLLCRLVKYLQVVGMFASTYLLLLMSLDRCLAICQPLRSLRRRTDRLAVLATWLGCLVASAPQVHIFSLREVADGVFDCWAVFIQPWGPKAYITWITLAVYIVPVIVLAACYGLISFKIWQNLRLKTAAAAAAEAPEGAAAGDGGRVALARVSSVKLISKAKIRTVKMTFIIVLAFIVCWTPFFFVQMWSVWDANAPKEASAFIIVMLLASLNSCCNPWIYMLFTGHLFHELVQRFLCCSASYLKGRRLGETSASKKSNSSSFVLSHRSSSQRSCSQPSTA
SMILES,target,test,system,conditions,EC50 [nM]
O=C(Cc1ccc(Br)cc1)N[C@@H]1CCOC1=O,sdiA,,,,631
CCCCCCCCCCCCCC(=O)O[C@@H]1[C@@H](C)[C@@]2(O)[C@@H](C=C(CO)C[C@]3(O)C(=O)C(C)=C[C@@H]23)[C@@H]2C(C)(C)[C@]12OC(C)=O,"1-phosphatidylinositol 4,5-bisphosphate phosphodiesterase gamma-1, residues 21-1215 (Rattus norvegicus, UniProt P10686)","enzyme activity, activator",lipid vesicles,"15 min preincubation, added: XY-69 substrate 0.5 µM",10000
CCCC(=O)CC(=O)N[C@H]1CCOC1=O,sdiA,,,,3.84
CCCCCCCCCCCCCCCCCC(=O)NC[C@H]1CC[C@H](C(=O)N[C@@H](CCC(=O)NCCCOCCOCCOCCCNC(=O)COCC(=O)N[C@@H](Cc2ccc(O)cc2)C(=O)NC(C)(Cc2ccccc2)C(=O)N[C@@H](CC(C)C)C(=O)N[C@@H](CCCC)C(=O)N[C@@H](CCCNC(=N)N)C(=O)N2CCC[C@H]2C(=O)N[C@@H](CCCNC(=N)NC)C(=O)N[C@@H](CC(N)=O)C(N)=O)C(=O)O)CC1 (stereo partly drawn),"Neuromedin-U receptor 2 (Mus musculus, UniProt Q8BZ39)","inositol phosphate, agonist",,,0.933
O=C(CCCOc1cccc(Br)c1)N[C@H]1CCSC1=O,"lasR (Pseudomonas aeruginosa, UniProt P25084)","reporter gene, agonist",ΔmexAB-oprM pump mutant,,560
Cc1cc(O)cc(C)c1C[C@H](N)C(=O)N[C@H](CCCNC(=N)N)C(=O)N[C@@H](Cc1ccccc1)C(=O)N(C)CC(=O)N(C)Cc1cc(C(F)(F)F)cc(C(F)(F)F)c1,"OPRD1 (Homo sapiens, UniProt P41143, K214A)",agonist,,,0.35 ± 0.15
CSCC[C@@H]1NC(=O)[C@H](Cc2ccccc2)NC(=O)[C@@H](NC(=O)[C@H](C)N)CSC(=O)[C@@H](C(C)C)NC(=O)[C@H](Cc2ccccc2)NC1=O,Histidine kinase AgrC,,,,883
CCCCCCCCCC(=O)NC1CCSC1=O (stereo not drawn),sdiA,,,,11.4
CSCC[C@@H]1NC(=O)[C@H](Cc2ccccc2)NC(=O)[C@@H](NC(C)=O)CSC(=O)[C@H](C(C)C)NC(=O)[C@H](Cc2ccccc2)NC1=O,Histidine kinase AgrC,,,,46.3
CC[C@H](C)[C@@H]1NC(=O)[C@H](Cc2ccc(O)cc2)NC(=O)[C@@H](N)CSSC[C@@H](C(=O)N2CCC[C@H]2C(=O)N[C@@H](CC(C)C)C(=O)NCC(N)=O)NC(=O)[C@H](CC(N)=O)NC(=O)[C@H](CCC(N)=O)NC(=O)[C@H]([C@@H](C)CC)NC(=O)[C@H](Cc2ccc(O)cc2)NC(=O)[C@@H](N)CSSC[C@@H](C(=O)N2CCC[C@H]2C(=O)N[C@@H](CC(C)C)C(=O)NCC(N)=O)NC(=O)[C@H](CC(N)=O)NC(=O)[C@H](CCC(N)=O)NC1=O,"Oxytocin receptor (OXTR, Homo sapiens, UniProt P30559)","calcium signal, agonist, fluorescence",,,829
CC(C)[C@@H]1NC(=O)[C@H](Cc2ccccc2)NC(=O)[C@@H](C)NC(=O)[C@H](Cc2ccccc2)NC(=O)[C@@H](NC(=O)[C@H](C)N)CSC1=O,Histidine kinase AgrC,,,,455
CCCC(=O)N[C@H]1CCSC1=O,sdiA,,,,6.85
